Assay results collected from several papers.
Compare with care: the assays were run in different laboratories. “And” joins repeats or separate records; there may be more than shown. ± gives the spread as reported.

Structure (SMILES) | tested on | assay | system | conditions | scale | measurement | result
CNC(=O)CC1C(=O)N(C2CCN(C3CCC(C(C)C)CC3)CC2)c2ccccc21 (stereo not shown) |  |  | conscious Sprague-Dawley rat | intravenous bolus, 100 nmol/kg |  | mean arterial pressure change | decreased
CC[C@H](C)[C@@H]1NC(=O)[C@@H]2CCCN2C(=O)[C@H](CC(C)C)NC(=O)[C@H](CC(C)C)NC(=O)CNC(=O)[C@@H](NC(=O)[C@@H](NC(=O)[C@H](CC(=O)O)NC(=O)CNC(=O)[C@@H](NC(=O)[C@H](C)NC(=O)CNC(=O)[C@H](CCCCN)NC(=O)[C@H](CC(C)C)NC(=O)[C@H](CC(C)C)NC(=O)[C@H](CCCCN)NC(=O)CNC(=O)[C@@H](NC(=O)[C@@H](N)CC(C)C)C(C)C)C(C)C)C(C)C)CSSC[C@@H](C(=O)O)NC1=O |  | RNA-seq, item: Irf2bp2 mRNA | mouse traumatic brain injury, frontal cortex and hippocampus | dose not given | relative to: TBI plus compound vs TBI | log2 fold change | -0.86
O=c1c(O)c(-c2ccc(O[C@@H]3O[C@H](CO)[C@@H](O)[C@H](O)[C@H]3O)c(O)c2)oc2cc(O)cc(O)c12 |  |  |  |  |  | DPPH radical scavenging | 4.04 trolox equivalents
C=CC(=O)Nc1cc(Nc2ncc(Cl)c(Nc3ccccc3C(=O)C(=O)N(C)C)n2)c(OC)cc1N1CCN(C)CC1 |  | RECIST v1.1 best response | human EGFR T790M NSCLC | oral, 50 mg/day, per-protocol set |  | patients with progressive disease | 33.3%
Oc1ccc2c3c1O[C@H]1[C@@H](O)CC[C@@]4(O)[C@@H](C2)N(CC2CCC2)CC[C@]314 | Mas-related G-protein coupled receptor member X1 (MRGPRX1, Homo sapiens, UniProt Q96LB2) | β-arrestin recruitment, TANGO luminescence |  | concentration not given | relative to: basal luminescence | log2 fold change | 0.472
CS(=O)(=O)c1ccc(-c2nnc(/C=C/c3nnc(-c4ccc(C#N)cc4)o3)n2-c2ccccc2Cl)nc1 |  | RNA-seq GSEA, item: HALLMARK_BILE_ACID_METABOLISM | organoids, small intestinal, Apc Q1405X, mouse | dose not given, 3 days, knockout organoids | relative to: DMSO, direction not given | normalized enrichment score | 1.87
CCSc1nc2ccccc2n1Cc1nnc(-c2ccccc2Cl)o1 |  | relaxation | isolated rabbit jejunum | spontaneous contractions |  | EC50 | 0.16 ± 0.21 µg/mL
COCC1=N[C@]23c4c(OC)cc(OC)cc4O[C@@]2(c2ccc(OC)cc2)[C@H](c2ccccc2)[C@@H](C(=O)N(C)OC)[C@]3(O)N1 |  | mRNA translation | Krebs-2 cell extracts |  |  | EC50 | 41 nM
CCSc1nc2ccccc2n1Cc1nnc(-c2ccc([N+](=O)[O-])cc2)o1 |  | relaxation | isolated rabbit jejunum | spontaneous contractions |  | EC50 | 0.22 ± 0.04 µg/mL
COc1ccc(-n2nc(C(C)=O)s/c2=N\N=C(/C)c2ccc(NC(C)=O)cc2)cc1 | MCF7 |  |  | 1.25 µM |  | toxicity | 93.1% and 50.5%
CNC(=O)c1c(C)oc2cc(Oc3ccnc4cc(OCCN5CCOCC5)ccc34)ccc12 |  | item: soluble VEGFR-3 | patients, plasma | 6 mg twice daily, cycle 2 day 1 |  | decrease | 38%
[2H]c1c([2H])c([C@]2([2H])CCCN2C(=O)C(C)(C)Oc2ccc3cn[nH]c3c2)c([2H])c([2H])c1C([2H])([2H])[2H] | Myosin-IIIb (MYO3B, Homo sapiens, UniProt Q8WXR4) | KINOMEscan |  | 1 µM | relative to: DMSO control | remaining binding | 98%
C[C@H]1CN(c2n[nH]c3nc(N[C@H]4CC[C@H](NS(=O)(=O)CCC(F)(F)F)CC4)ncc23)CCO1 | TNF receptor-associated factor 2 (Homo sapiens, UniProt Q12933) | Kinobeads competition, item: TRAF2 |  | 0.16 µM, unit not given | relative to: vehicle | remaining binding | 1.05
CCSc1nc2ccccc2n1Cc1nnc(-c2ccc(OC)cc2)o1 |  | relaxation | isolated rabbit jejunum | spontaneous contractions |  | EC50 | 0.27 ± 0.11 µg/mL
CN1CCN(c2cc(-c3ccncc3)c(-c3ccc4ccccc4c3)nn2)CC1 | MRGPRD (Homo sapiens, UniProt Q8TDS7) | agonist, FLIPR |  | 12.5 µM |  | activation | 5.4%
CCCCC1(CCCC)CN(c2ccccc2)c2cc(SC)c(OCC(=O)N[C@@H](C(=O)NCC(=O)O)c3ccccc3)cc2S(=O)(=O)C1 |  | item: HDL cholesterol | human, serum | 2.5 mg once daily, day 11 |  | serum HDL-C | 51.6 mg/dL
Oc1ccc(Cc2ccc(O)cc2)cc1 |  | DPPH radical |  | 300 µg/mL |  | radical scavenging | 23.4 ± 0.38%

Structure (SMILES) | tested on | assay | system | conditions | scale | measurement | result
COc1c(CCC[P+](c2ccccc2)(c2ccccc2)c2ccccc2)cc2c(c1OC)OCO2.[I-] | SNB-19 | SRB |  |  |  | LC50 | > -4 log M
C[C@]1(CO)Cc2ncn(-c3ccc(C#N)c(Cl)c3)c2C(=O)O1 |  | aldosterone synthesis, inhibitor, item: sodium | healthy Japanese adults, urine | 3 mg, 0-24 h after first dose, multiple rising dose |  | urinary excretion | 149 mmol
C[C@]12CC[C@H](n3ccnc3)CC1=CC[C@@H]1[C@@H]2CC[C@]2(C)C(n3cnc4ccccc43)=CC[C@@H]12 |  | Western blot | male NRG mouse, CWR22Rv1 xenograft, tumour | dose not given, day 16 |  | full-length AR protein level | decreased
CCSc1nc2ccccc2n1Cc1nnc(-c2cccc(OC)c2O)o1 |  | relaxation | isolated rabbit jejunum | spontaneous contractions |  | EC50 | 0.24 µg/mL
COc1ccc(N2C(=O)N(c3c(C)cccc3Cl)Cc3cnc(Nc4ccc(C5CCN(C)CC5)cc4OC)nc32)nc1 | Non-receptor tyrosine-protein kinase TYK2 (TYK2, Homo sapiens, UniProt P29597) | kinase activity |  | 0.5 µM |  | inhibition | 8%
CC[C@H](C)[C@H](NC(=O)[C@H](Cc1ccccc1)NC(=O)[C@H](CCC(=O)O)NC(=O)[C@H](CCCNC(=N)N)NC(=O)[C@H](C)NC(=O)[C@H](C)NC(=O)[C@H](CCC(N)=O)NC(=O)[C@H](CCC(=O)O)NC(=O)[C@H](CCC(=O)O)NC(=O)[C@H](CC(C)C)NC(=O)[C@H](Cc1ccc(O)cc1)NC(=O)[C@H](CO)NC(=O)[C@H](CO)NC(=O)[C@@H](NC(=O)[C@H](CC(=O)O)NC(=O)[C@H](CO)NC(=O)[C@@H](NC(=O)[C@H](Cc1ccccc1)NC(=O)[C@@H](NC(=O)CNC(=O)[C@H](CCC(=O)O)NC(=O)[C@H](C)NC(=O)CCc1c[nH]cn1)[C@@H](C)O)[C@@H](C)O)C(C)C)C(=O)N[C@@H](C)C(=O)N[C@@H](Cc1c[nH]c2ccccc12)C(=O)N[C@@H](CC(C)C)C(=O)N[C@H](C(=O)N[C@@H](CCCNC(=N)N)C(=O)NCC(=O)N[C@@H](CCCNC(=N)N)C(=O)N[C@@H](CCCCNC(=O)COCCOCCNC(=O)COCCOCCNC(=O)CC[C@H](NC(=O)CCCCCCCCCCCCCCCCC(=O)O)C(=O)O)C(=O)NCC(=O)NCC(=O)N[C@@H](CO)C(=O)N[C@@H](CCCCNc1c(NCCCCCN(O)C(=O)CCC(=O)NCCCCCN(O)C(=O)CCC(=O)NCCCCCN(O)C(C)=O)c(=O)c1=O)C(=O)O)C(C)C [zirconium-89 labelled] |  |  | rat, lung | iv, 3 nmol/kg, 24 h, ex vivo |  | tissue uptake | 1.49 %ID/g
C[C@H]1O[C@@H](O[C@H]2CC[C@@]3(C)[C@@H](CC[C@]4(C)[C@@H]3C=C[C@]35OC[C@@]6(CCC(C)(C)C[C@H]63)[C@@H](O)C[C@]54C)[C@]2(C)CO)[C@H](O)[C@@H](O[C@@H]2O[C@H](CO)[C@@H](O)[C@H](O)[C@H]2O)[C@H]1O |  | item: CPT-1α | chronic-plus-binge ethanol-fed mice, AAV8-TBG-Null, liver | dose not given, high dose, unit not given | relative to: AAV8-TBG-Null ethanol group | mRNA level | 0.53 and 2.74 and 2.77 and 2.52 and 0.29
O=C1O[C@H]2[C@@H]3OC(=O)c4cc(O)c(O)c(O)c4-c4c(O)c(O)c5oc(=O)c6c(c(O)c(O)c7oc(=O)c4c5c76)-c4c(cc(O)c(O)c4O)C(=O)OC[C@H]3OC(O)[C@@H]2OC(=O)c2cc(O)c(O)c(O)c2-c2c1cc(O)c(O)c2O (mixture of isomers) |  | FeCl3 carotid thrombosis model | mouse | oral gavage, 100 µg/g, 90 min, added: 10% FeCl3 for 3 min |  | vessels not occluded | ~50%
COc1cc(Nc2ncc(F)c(Nc3ccc4c(n3)NC(=O)C(C)(C)O4)n2)cc(OC)c1OC | Histamine N-methyltransferase (HNMT, Homo sapiens, UniProt P50135) | enzyme activity, inhibitor |  |  |  | IC50 | > 10000 nM
Cc1nc(Nc2ccc(CC(=O)O)cc2)nc(Nc2ccc(F)c(C(F)(F)F)c2)c1C |  | histology | C57BL/6J mouse, high-fat diet MASH model | intraperitoneal, 0.3 mg/kg daily, 60% fat diet for 12 weeks, dosed final four weeks | relative to: untreated | liver parenchymal dysregulation | decreased
COc1ccc(O)c(C(C)(C)C)c1 |  | Fe3+ reduction, ferricyanide reduction |  | 30 µg/mL |  | absorbance | 1.66 ± 0.051
CCSc1nc2ccccc2n1Cc1nnc(-c2ccc(O)cc2)o1 |  | relaxation | isolated rabbit jejunum | spontaneous contractions |  | EC50 | 0.16 ± 0.05 µg/mL
C[C@@H](O)[C@@H](CO)NC(=O)[C@@H](CCCNC(=N)N)NC(=O)[C@@H]1CCCN1C(=O)[C@@H]1CSSC[C@H](NC(=O)[C@H](Cc2ccccc2)NC(=O)CN2CCN(CC(=O)O)CCN(CC(=O)O)CCN(CC(=O)O)CC2)C(=O)N[C@@H](Cc2ccc(O)cc2)C(=O)N[C@@H](Cc2ccccc2)C(=O)N[C@@H](CCC(N)=O)C(=O)N[C@@H](CC(N)=O)C(=O)N1 [gallium-68 labelled] |  |  | healthy Wistar rat, muscle | intravenous, 8 MBq, 60 min, individual animals |  | tissue uptake | 0.41 %ID/g
Cc1cn(-c2cc(NC(=O)c3ccc(C)c(Nc4nccc(-c5cccnc5)n4)c3)cc(C(F)(F)F)c2)cn1 |  |  | human patients | dose not given, 6 months vs baseline, within treated group, unit not given | relative to: baseline | ADAS-Cog maze errors change | 1.5
C[C@]12CC[C@H](O)C[C@H]1CC[C@@H]1[C@@H]2CC[C@]2(C)[C@@H](c3ccc(=O)oc3)CC[C@]12O |  |  | female nude mouse LCC2 xenograft | 0.5 mg/kg, day 3, tamoxifen-resistant |  | tumour volume | 25.9 mm3 and 26.4 mm3 and 28.6 mm3 and 32.2 mm3 and 43.6 mm3 and 35.6 mm3 and 30 mm3
COc1cc(CCC[P+](c2ccccc2)(c2ccccc2)c2ccccc2)c(OC)c2c1OCO2.[I-] | SK-MEL-28 | SRB |  |  |  | LC50 | -4.38 log M
C=CCNc1c(O)cc2c(O)c1C[C@@H](C)C[C@H](OC)[C@H](O)[C@@H](C)/C=C(\C)[C@H](OC(N)=O)[C@@H](OC)/C=C\C=C(/C)C(=O)N2 |  | RECIST v1.0 | human soft tissue sarcoma | concentration not given, best response |  | patients with progressive disease | 24%
